Published values collected from several papers.
Lines come from different studies, so protocols differ. Numbers after ± are the reported error.
Organism: West Nile virus

The fold enrichment of `Nc1ncnc2c1ncn2[C@@H]1O[C@@H]2COP(=O)(O)O[C@H]3[C@@H](O)[C@H](n4cnc5c(=O)[nH]cnc54)O[C@@H]3COP(=O)(O)O[C@H]2[C@H]1O` is reported as 5.15 (RNA sequencing, item: organization, cell-cell junction, R-HSA-421270; HFF-1 cells; concentration not given, downregulated pathway; baseline: WNV-infected untreated cells).
`O=c1ccn([C@@H]2O[C@H](CO)[C@@H](O)[C@H]2O)c(=S)[nH]1` gave an EC50 of 5.3 µM (viral replication; BHK-21).
`CC(CCCN(CCCl)CCCl)Nc1ccnc2cc(Cl)ccc12` (stereo not drawn) gave an inhibition of 99.8 ± 0.03% (replicon reporter; Vero replicon cells; 50 µM, 24 h).
For `NC(=O)c1nc(F)c[nH]c1=O`, the EC50 was 36 µM (viral replication; BHK-21).
`Cl.ClCCN(CCCl)c1ccc(CCNc2ccnc3cc(Cl)ccc23)cc1` gave an inhibition of 99.5 ± 0.05% (viral replication, Rluc reporter replicon; Vero WNV replicon cells; 50 µM, 24 h).
With `N#Cc1c(Nc2ccc(F)cc2)n[nH]c1NS(=O)(=O)c1ccc2ccccc2c1` the EC50 was over 7.9 µM (viral replication; Vero 76, Kern 515).
The inhibition of `COc1cc(NC(C)CCCN)c2ncccc2c1` (stereo not drawn) is reported as under 0% (replicon reporter; Vero replicon cells; 50 µM, 24 h).
The EC50 of `N#C[C@@]1(n2ccc(N)nc2=O)O[C@H](CO)[C@@H](O)[C@H]1O` is reported as over 20 µM (viral replication, cell-based).
`O=C(N1CCC2(CC1)C[C@H](CN1CCCCS1(=O)=O)CCO2)C1(c2ccccc2)CCCC1` has an EC50 of over 10 µM (viral replication; Vero).
